Measurements of several laboratories.
Numbers after ± are the reported error. In brackets after ≈: the same amount, converted by molar mass.

Compound	target or system	test	test system	setting	measurement	result
CCCNC(=O)[C@H](CC(C)C)NC(=O)[C@H](Cc1c[nH]cn1)NC(=O)CNC(=O)[C@@H](NC(=O)[C@H](C)NC(=O)[C@H](Cc1c[nH]c2ccccc12)NC(=O)[C@H](CCC(N)=O)NC(=O)[C@@H](Cc1ccccc1)NC(=O)CCCCCNC(=O)CN1CCN(CC(=O)O)CCN(CC(=O)O)CCN(CC(=O)O)CC1)C(C)C [indium-111 labelled]	Gastrin-releasing peptide receptor (Mus musculus, UniProt P21729)	biodistribution	CF-1 mice, brain	intravenous, 1 h, unblocked	tissue uptake	0.01 %ID/g
CN[C@](C)(C[18F])C(=O)O	A549 tumour model	–	host not given, liver	15 min, tumour-bearing	tracer uptake	5.6 %ID/g
N=C(N)NCCC[C@@H]1NC(=O)[C@H](CCCCNC(=O)CCOCCOCCOCCOCCNC(=O)CN2CCN(CC(=O)O)CCN(CC(=O)O)CCN(CC(=O)O)CC2)NC(=O)[C@@H](Cc2ccccc2)NC(=O)[C@H](CC(=O)O)NC(=O)CNC1=O [indium-111 labelled]	–	–	female athymic nude mice, eyes	intravenous, 3 µCi, 24 h, U-87 MG glioma xenograft	tissue uptake	0.14 ± 0.01 %ID/g
N=C(N)NCCC[C@@H]1NC(=O)[C@H](CC(=O)NC23CNCCNCC(N)(CNCCNC2)CNCCNC3)NC(=O)[C@@H](Cc2ccccc2)NC(=O)[C@H](CC(=O)O)NC(=O)CNC1=O [copper-64 labelled]	–	–	Nu/Nu mouse, male, tumour-bearing, muscle	intravenous, 10 µCi, 4 h	tissue uptake	0.13 ± 0.04 %ID/g
N=C(N)NCCC[C@@H]1NC(=O)[C@H](CCCCNC(=O)CC[C@H](NC(=O)CCOCCOCCOCCOCCNC(=O)CC[C@H](NC(=O)CN2CCN(CC(=O)O)CCN(CC(=O)O)CCN(CC(=O)O)CC2)C(=O)NCCOCCOCCOCCOCCC(=O)N[C@@H](CCC(=O)NCCCC[C@@H]2NC(=O)[C@@H](Cc3ccccc3)NC(=O)[C@H](CC(=O)O)NC(=O)CNC(=O)[C@H](CCCNC(=N)N)NC2=O)C(=O)NCCCC[C@@H]2NC(=O)[C@@H](Cc3ccccc3)NC(=O)[C@H](CC(=O)O)NC(=O)CNC(=O)[C@H](CCCNC(=N)N)NC2=O)C(=O)NCCCC[C@@H]2NC(=O)[C@@H](Cc3ccccc3)NC(=O)[C@H](CC(=O)O)NC(=O)CNC(=O)[C@H](CCCNC(=N)N)NC2=O)NC(=O)[C@@H](Cc2ccccc2)NC(=O)[C@H](CC(=O)O)NC(=O)CNC1=O [indium-111 labelled]	–	–	athymic nude mice, female, U-87 MG glioma xenograft, spleen	intravenous, 3 µCi, 4 h	tissue uptake	1.98 ± 0.97 %ID/g
CSCC[C@H](NC(=O)[C@H](CC(C)C)NC(=O)[C@H](Cc1c[nH]cn1)NC(=O)CNC(=O)[C@@H](NC(=O)[C@H](C)NC(=O)[C@H](Cc1c[nH]c2ccccc12)NC(=O)[C@H](CCC(N)=O)NC(=O)CCCCCNC(=O)CNC(=O)CNC(=O)CNC(=O)CSC(C)=O)C(C)C)C(N)=O [technetium-99m labelled]	–	–	nude mouse, PC-3 xenograft, stomach	90 min	tissue uptake	0.65 ± 0.22 %ID/g
CCCCCCCCC(=O)NCc1ccc(O)c(OC)c1	mAb 4-AT4	antibody binding, indirect competitive ELISA	–	with: coating antigen hapten 5-OVA	IC50	2 ng/mL (≈ 6.82 nM)
N=C(N)NCCC[C@@H]1NC(=O)[C@H](CCCCNC(=O)CNC(=O)CNC(=O)CNC(=O)CC[C@H](NC(=O)c2ccc(NN=Cc3ccccc3S(=O)(=O)O)nc2)C(=O)NCC(=O)NCC(=O)NCC(=O)NCCCC[C@@H]2NC(=O)[C@@H](Cc3ccccc3)NC(=O)[C@H](CC(=O)O)NC(=O)CNC(=O)[C@H](CCCNC(=N)N)NC2=O)NC(=O)[C@@H](Cc2ccccc2)NC(=O)[C@H](CC(=O)O)NC(=O)CNC1=O [technetium-99m labelled]	–	–	athymic nu/nu mouse, female, U-87 MG glioma xenograft, kidney	intravenous, 120 min	tissue uptake	9.99 ± 0.61 %ID/g
N=C(N)NCCC[C@@H]1NC(=O)[C@H](CCCCNC(=O)CCOCCOCCOCCOCCNC(=O)CC[C@H](NC(=O)CCOCCOCCOCCOCCNC(=O)CC[C@H](NC(=O)CN2CCN(CC(=O)O)CCN(CC(=O)O)CCN(CC(=O)O)CC2)C(=O)NCCOCCOCCOCCOCCC(=O)N[C@@H](CCC(=O)NCCOCCOCCOCCOCCC(=O)NCCCC[C@@H]2NC(=O)[C@@H](Cc3ccccc3)NC(=O)[C@H](CC(=O)O)NC(=O)CNC(=O)[C@H](CCCNC(=N)N)NC2=O)C(=O)NCCOCCOCCOCCOCCC(=O)NCCCC[C@@H]2NC(=O)[C@@H](Cc3ccccc3)NC(=O)[C@H](CC(=O)O)NC(=O)CNC(=O)[C@H](CCCNC(=N)N)NC2=O)C(=O)NCCOCCOCCOCCOCCC(=O)NCCCC[C@@H]2NC(=O)[C@@H](Cc3ccccc3)NC(=O)[C@H](CC(=O)O)NC(=O)CNC(=O)[C@H](CCCNC(=N)N)NC2=O)NC(=O)[C@@H](Cc2ccccc2)NC(=O)[C@H](CC(=O)O)NC(=O)CNC1=O [indium-111 labelled]	–	–	female athymic nude mice, muscle	intravenous, 3 µCi, 24 h, U-87 MG glioma xenograft	tissue uptake	0.52 ± 0.05 %ID/g
CCCC[C@H](NC(=O)CNC(=O)CNC(=O)c1ccc(NN)nc1)C(=O)N[C@H]1CC(=O)NCCCC[C@@H](C(N)=O)NC(=O)[C@H](Cc2c[nH]c3ccccc23)NC(=O)[C@H](CCCNC(=N)N)NC(=O)[C@@H](Cc2ccccc2)NC(=O)[C@H](Cc2c[nH]cn2)NC1=O [technetium-99m labelled]	–	–	C57 mouse, B16/F1 melanoma-bearing, pancreas	intravenous, 24 h	tissue uptake	0.03 ± 0.02 %ID/g
CCN(Cc1ccccc1)C(=O)CCc1nc(CN2CCN(C(=O)Cc3ccc(OC)c(OC)c3)CC2)no1	KCNQ5 (Homo sapiens, UniProt Q9NR82)	whole-cell patch clamp	transfected cells	300 nM	V1/2 of activation	-50.1 ± 1.52 mV
CCCC[C@H](NC(=O)COCCOCCNC(=O)c1ccc(NN)nc1)C(=O)N[C@H]1CC(=O)NCCCC[C@@H](C(N)=O)NC(=O)[C@H](Cc2c[nH]c3ccccc23)NC(=O)[C@H](CCCNC(=N)N)NC(=O)[C@@H](Cc2ccccc2)NC(=O)[C@H](Cc2c[nH]cn2)NC1=O [technetium-99m labelled]	–	–	C57 mouse, female, B16/F1 melanoma, intestines	intravenous, 0.037 MBq, 2 h	tissue uptake	0.99 ± 0.55 %ID
C[C@H](NC(=O)[C@H](CCC(N)=O)NC(=O)[C@H](C)NC(=O)[C@H](CCCCN)NC(=O)[C@H](CCC(N)=O)NC(=O)[C@H](C)NC(=O)[C@H](CCCCN)NC(=O)[C@H](CCC(N)=O)NC(=O)[C@H](C)NC(=O)[C@H](CCC(N)=O)NC(=O)[C@H](CCCCN)NC(=O)[C@H](C)NC(=O)[C@H](CCC(N)=O)NC(=O)[C@H](CCCCN)NC(=O)[C@H](C)NC(=O)[C@H](CCC(N)=O)NC(=O)[C@H](C)NC(=O)[C@H](CCCCN)NC(=O)[C@H](CCC(N)=O)NC(=O)[C@H](C)NC(=O)[C@H](CCCCN)NC(=O)[C@H](CO)NC(=O)[C@H](Cc1ccc(O)cc1)NC(=O)CNC(=O)CNC(=O)CN)C(=O)N[C@@H](CCCCN)C(=O)N[C@@H](CCC(N)=O)C(=O)N[C@@H](C)C(=O)N[C@@H](CCCCN)C(=O)N[C@@H](CCC(N)=O)C(=O)O	–	binding, SPR two-state model	rVλ6Wil fibrils	300 nM	kd1	0.203 s⁻¹
CC(=O)NC(Cc1ccc(Br)c(Cl)c1)C(=O)N[C@@H](C)C(=O)N1CCC[C@H]1C(=O)N1CCC[C@H]1C(=O)N[C@@H](CCC(=O)O)C(=O)N[C@@H](Cc1c[nH]cn1)C(=O)N[C@@H](CO)C(=O)N[C@H](C(=O)N[C@@H](C)C(N)=O)[C@@H](C)OP(=O)(O)O (stereo partly drawn)	CSNK1G2 (Homo sapiens, UniProt P78368)	enzyme activity, inhibitor	–	10 µM	inhibition	3.73%
CSCC[C@H](NC(=O)[C@H](CC(C)C)NC(=O)[C@H](Cc1c[nH]cn1)NC(=O)CNC(=O)[C@@H](NC(=O)[C@H](C)NC(=O)[C@H](Cc1c[nH]c2ccccc12)NC(=O)[C@H](CCC(N)=O)NC(=O)CNC(=O)[C@H](CO)NC(=O)CNC(=O)CCCCCCCNC(=O)CCC(=O)Nc1ccc(CNC23CNCCNCC(N)(CNCCNC2)CNCCNC3)cc1)C(C)C)C(N)=O [copper-64 labelled]	–	–	female SCID mice, PC-3 xenograft, lung	intravenous, 0.6 MBq, 24 h	tissue uptake	0.216 ± 0.014 %ID/g
C[C@@H](O)[C@H](NC(=O)[C@@H]1CSSC[C@H](NC(=O)[C@@H](Cc2ccccc2)NC(=O)CN2CCCN3CCN(CCCN(CP(=O)(O)O)CC3)CC2)C(=O)N[C@@H](Cc2ccc(O)cc2)C(=O)N[C@H](Cc2c[nH]c3ccccc23)C(=O)N[C@@H](CCCCN)C(=O)N[C@@H]([C@@H](C)O)C(=O)N1)C(=O)O [copper-64 labelled]	–	–	Lewis rat, male, tumour-bearing, adrenals	injection, 4 h	tissue uptake	8.6 ± 0.2 %ID/g
CCCC[C@H](NC(=O)CCCCCCCNC(=O)c1ccc(NN)nc1)C(=O)N[C@H]1CC(=O)NCCCC[C@@H](C(N)=O)NC(=O)[C@H](Cc2c[nH]c3ccccc23)NC(=O)[C@H](CCCNC(=N)N)NC(=O)[C@@H](Cc2ccccc2)NC(=O)[C@H](Cc2c[nH]cn2)NC1=O [technetium-99m labelled]	–	–	C57 mouse, B16/F1 melanoma, liver	2 h, with: NDP-MSH 10 µg (6.07 nmol) co-injected	tissue uptake	1.22 ± 0.12 %ID/g
N=C(N)NCCC[C@@H]1NC(=O)[C@H](CCCCNC(=O)CNC(=O)CNC(=O)CNC(=O)CC[C@H](NC(=O)CCOCCOCCOCCOCCNC(=O)CC[C@H](NC(=O)CN2CCN(CC(=O)O)CCN(CC(=O)O)CCN(CC(=O)O)CC2)C(=O)NCCOCCOCCOCCOCCC(=O)N[C@@H](CCC(=O)NCC(=O)NCC(=O)NCC(=O)NCCCC[C@@H]2NC(=O)[C@@H](Cc3ccccc3)NC(=O)[C@H](CC(=O)O)NC(=O)CNC(=O)[C@H](CCCNC(=N)N)NC2=O)C(=O)NCC(=O)NCC(=O)NCC(=O)NCCCC[C@@H]2NC(=O)[C@@H](Cc3ccccc3)NC(=O)[C@H](CC(=O)O)NC(=O)CNC(=O)[C@H](CCCNC(=N)N)NC2=O)C(=O)NCC(=O)NCC(=O)NCC(=O)NCCCC[C@@H]2NC(=O)[C@@H](Cc3ccccc3)NC(=O)[C@H](CC(=O)O)NC(=O)CNC(=O)[C@H](CCCNC(=N)N)NC2=O)NC(=O)[C@@H](Cc2ccccc2)NC(=O)[C@H](CC(=O)O)NC(=O)CNC1=O [indium-111 labelled]	–	–	female athymic nude mice, eyes	intravenous, 3 µCi, 0.5 h, U-87 MG glioma xenograft	tissue uptake	1.33 ± 0.23 %ID/g
